Measurements pooled from the literature.
± marks the error that the study gave.

Structure (SMILES)	test	system	conditions	how to read	Tmax
N#Cc1cc(NC(=O)[C@H]2c3ccccc3C(=O)N(CC(F)(F)F)[C@@H]2c2cccnc2)ccc1F	–	human, plasma	oral, 900 mg, median	–	1.5 h
O=C(O)C[C@H](O)C[C@H](O)/C=C/c1c(C2CC2)nc2ccccc2c1-c1ccc(F)cc1	–	OATP1B1/1B3 humanized mouse, plasma	oral, 5 mg/kg, added: silymarin 500 mg/kg oral	–	0.5 h
CC(F)(F)c1cc(F)ccc1-c1sc2cc(O)ccc2c1Oc1ccc(/C=C/C(=O)O)cc1	–	human patients, serum	oral, 200 mg twice daily, cycle 1 day 28, without regard to food, median	–	2.5 h
Cn1nnc2c(C(N)=O)ncn2c1=O	–	human patients, plasma	oral, 20 mg/m2, day 5, dose level DL2, median, added: talazoparib 400 µg/m2	–	2 h
CCNCCCNC/C=C\CNCCCNCC	LC-MS/MS	human cancer patients, plasma	intravenous infusion 60 min, 50 mg, median, cycle 1	–	0.5 h
CCCCCCCOc1ccc(CCC(N)(CO)CO)cc1C(F)(F)F.Cl	–	healthy human males, plasma	0.75 mg, day 21, median	–	10 h
CC1(COc2ccc3c(c2)ncn3-c2ccc3cccc(N4CCC(N)CC4)c3n2)COC1	–	human patients, recurrent/progressive HGG or DIPG, serum	oral, 220 mg/m^2, day 28, median	–	3 h
CC(=O)N1CCC(Nc2cc(C(=O)NC[C@H](O)CN3CCc4ccccc4C3)ncn2)CC1	–	human	oral, 300 mg, median	–	2.17 h
COc1ccc2c3c1O[C@H]1C[C@@H](OC(=O)c4ccccc4)C=C[C@@]31CCN(C)C2	–	human, plasma	intranasal, 22 mg single dose	–	0.5 h
Cc1cc(-c2nccc3c2ccn3CC(=O)Nc2ccc(-c3cnccn3)cn2)ccn1	–	human, plasma	oral, 7 mg single dose, median	–	1.51 h
Fc1ccc([C@@H]2CCNC[C@H]2COc2ccc3c(c2)OCO3)cc1	–	human, CYP2D6 poor metabolizers	oral, 20 mg, steady state, geometric mean	–	4.1 h
COc1ccc2nc([S@@+]([O-])Cc3ncc(C)c(OC)c3C)[nH]c2c1	–	human, dried blood spots	oral, 10 mg omeprazole	–	2 h
CC(C)NC(=O)COc1cccc(-c2nc(Nc3ccc4[nH]ncc4c3)c3ccccc3n2)c1	–	human, male, fed, plasma	oral, 200 mg once daily, day 8, median, added: raltegravir	–	2 h
COc1cc(C(=O)NC2CCN(C)CC2)c(F)cc1Nc1ncc(C(F)(F)F)c(Oc2cccc3c2C(=O)N(C)C3)n1	–	human patients, plasma	oral, 300 mg single dose, median	–	2.02 h
Cc1ncnc2c1ccn2[C@@H]1C[C@H](Oc2cc(C(F)F)c(F)c3c2CNCC3)[C@@H](O)[C@H]1O	–	human, plasma	4 mg once daily, multiple dose, median	–	1.9 h
NC(=O)N1c2ccccc2C=Cc2ccccc21	–	healthy human subjects, plasma	oral, day 21, twice daily, with glecaprevir and pibrentasvir, median	–	4.5 h
N#CCNC(=O)c1ccc(-c2ccnc(Nc3ccc(N4CCOCC4)cc3)n2)cc1	–	healthy human volunteers, plasma	oral, 200 mg single dose, day 1, fasted, given alone	–	1.75 h
CC(C)[C@H](N)C(=O)NCCCS(=O)(=O)O	median	human, plasma	oral, 340 mg twice daily days 8-13, once daily day 14, day 14, fed, capsule	–	1 h
C#C[C@]1(COP(=O)(O)O)O[C@@H](n2cnc3c(N)nc(F)nc32)C[C@@H]1O	measured: islatravir triphosphate	human, PBMC	oral, 15 mg single dose	–	6.03 h
COc1ncc(-c2nc3c(n2C(C)C)[C@H](c2ccc(Cl)cc2)N(c2cc(Cl)cn(C)c2=O)C3=O)c(OC)n1	LC-MS/MS, noncompartmental	human, plasma	oral, 150 mg, C2D1, high-dose, median	–	3 h
C#C[C@]1(CO)O[C@@H](n2cnc3c(N)nc(F)nc32)C[C@@H]1O	–	human, plasma	oral, 200 mg, single dose, median	–	0.5 h
CN(CC#N)C(=O)C[C@H](Nc1nc2ccccc2[nH]1)c1cccc(C(F)(F)F)c1	–	human	intravenous infusion, 4 mg/kg, 1 mg/mL formulation	–	0.49 ± 0.01 h
N[C@](CO)(CCc1ccc(Sc2cccc(OCc3ccccc3)c2)cc1Cl)COP(=O)(O)O	–	human, fed, blood	3 mg, median, alone	–	12 h
COc1cc(N2CCC(N3CCN(C)CC3)CC2)ccc1Nc1ncnc(Nc2ccccc2S(=O)(=O)C(C)C)n1	–	human, dose expansion arm, plasma	oral, 200 mg, day 1, mean	–	2.64 h
Cc1ccc(C)c(OCCCC(C)(C)C(=O)O)c1	–	human, plasma	oral, dose not given, after lopinavir/ritonavir, geometric mean, added: lopinavir/ritonavir	–	1.3 h
CN(C)C(=O)c1cc2cnc(Nc3ccc(N4CCNCC4)cn3)nc2n1C1CCCC1	–	human, severe renal impairment, plasma	oral, 400 mg, single dose, median	–	2 h
COc1nnc2ccc(N3CCC(c4ccc(OCCN5CCN(C)C(=O)[C@H]5C)cc4)CC3)nn12	–	human, plasma	oral, 30 mg once daily, single dose, monotherapy	–	1 h

Structure (SMILES)	test	system	conditions	how to read	Tmax
C=CC(=O)NC1CCN(c2ncc3ncnc(Nc4ccc(Oc5ccc6c(c5)ncn6C)c(C)c4)c3n2)CC1	–	human, male, plasma	oral, 240 mg single dose, fasted, median	–	2 h
Cc1cc(/C=C/C#N)cc(C)c1Nc1ccnc(Nc2ccc(C#N)cc2)n1	–	human, haemodialysis, plasma	oral, dose not given, steady state, median	–	2.3 h
C#C[C@]1(O)CC[C@H]2[C@@H]3CCc4cc(O)ccc4[C@H]3CC[C@@]21C	–	human	–	–	3 h
CC1(C)CC[C@]2(NC(=O)C(C)(F)F)CC[C@]3(C)[C@H](C(=O)C=C4[C@@]5(C)C=C(C#N)C(=O)C(C)(C)[C@@H]5CC[C@]43C)[C@@H]2C1	–	human, plasma	added: itraconazole	baseline: without itraconazole	no effect
N#CCC1CCN(c2nc(Nc3ccc(N4CCC(O)CC4)cc3)c3c(=O)[nH]ncc3n2)CC1	LC-MS/MS	human, plasma	oral, 20 mg once daily, day 1, median	–	2 h
C#C[C@]1(COP(=O)(O)OP(=O)(O)O)O[C@@H](n2cnc3c(N)nc(F)nc32)C[C@@H]1O	measured: islatravir triphosphate	human, PBMC	oral, 5 mg single dose	–	18 h
Cc1cc(Nc2cc3ncccc3c(N[C@@H]3C[C@H]4CC[C@@H](C3)N4CCC#N)n2)n[nH]1	–	human, plasma	1000 mg single dose, median	–	1.01 h
Cc1noc(C)c1-c1cc(C(O)(c2ccccn2)c2ccccn2)c2nc(C3CC3)[nH]c2c1	–	human male patients, fasted, plasma	oral, 2 mg once daily, cycle 1 day 8	–	0.5 h
Cn1c(=O)oc2ccc(-c3ccc(C[C@@H](C#N)NC(=O)[C@@H]4CNCCCO4)cc3)cc21	–	human, normal renal function, plasma	oral, 25 mg single dose, median	–	1 h
CC1=C(c2cccc(O)c2)[C@H](c2ccc(OCCN3CC(CF)C3)cc2)Oc2ccc(O)cc21	–	human, plasma	oral, 1000 mg once daily, steady state median	–	3 h
Cc1cc(-c2nnc(N)nc2-c2ccc(F)cc2)cc(Cl)n1	–	human patients, plasma	oral, 200 mg capsule, single dose, median	–	2 h
CC(C)(Sc1ccncc1-c1ccc(C#N)c2ccccc12)C(=O)O	–	human, plasma	oral, 2.5 mg once daily, median, added: febuxostat 0 mg	–	3.5 h
C[C@H](NC(=O)/C(C#N)=C/c1cccc(Br)n1)c1ccccc1	LC-MS/MS	human, plasma	oral, 1 mg/kg, cycle 1 day 1	–	0.5 h
CNC(=O)c1ccc(-c2cnc3ncc(Cc4ccc5ncccc5c4)n3n2)cc1F	–	human severe hepatic impairment NCI	oral, 200 mg single dose, median	–	1.5 h
CO[C@@H]1[C@H](OC(=O)N2CC(CCN3CCOCC3)C2)CC[C@]2(CO2)[C@H]1[C@@]1(C)O[C@@H]1CC=C(C)C	–	humans, plasma	subcutaneous, 0.2 mg twice weekly, first dose	–	0.5 h
C[C@H](Oc1ccc(Br)cc1-c1ccon1)C(=O)O	LC-MS/MS, non-compartmental	human, plasma	200 mg once daily, day 10, multiple ascending dose, median	–	3 h
COC(=O)N[C@@H](C)CNc1nccc(-c2cn(C(C)C)nc2-c2cc(Cl)cc(NS(C)(=O)=O)c2F)n1	–	human, plasma	oral, 50 mg, added: diltiazem 240 mg once daily	median	1.5 h
CC(=O)N(C)[C@H]1CCN(C(=O)c2cnc3c(c2)C[C@](C)(c2ccc(F)cc2)N3)C1	–	human, male, plasma	oral, 60 mg once daily, median	–	1.13 h
CCNCc1cc(Nc2ccnc3cc(Cl)ccc23)ccc1O	–	human, both sexes, plasma	oral, dose not given, non-fixed combination	–	1.65 h
CC#CC(=O)N1CC[C@@H](n2cc(-c3ccc(Oc4c(F)cccc4F)cc3)c3c(N)n[nH]c(=O)c32)C1	–	human patients	oral	–	1 to 4 h
Cl.O=C(NC1CCOCC1)c1csc([C@@H]2C[C@H]2NCC2CC2)c1	–	human, fed, plasma	oral, 30 mg single dose, median, high-fat breakfast	–	3 h
O=C(c1cc(Cc2n[nH]c(=O)c3ccccc23)ccc1F)N1CCN(C(=O)C2CC2)CC1	–	human, female, plasma	oral, 250 mg twice daily, added: abemaciclib	–	2 h
Cn1ncnc1[C@H]1c2n[nH]c(=O)c3cc(F)cc(c23)N[C@@H]1c1ccc(F)cc1	–	human patients, plasma	oral, 600 µg/m2 twice daily, day 1, monotherapy, dose level DL6, median	–	1 h
CCCCCCCCCCCCCCCC(=O)N[C@@H](CCC(=O)NCCCC[C@@H]1NC(=O)[C@H]([C@@H](C)CC)NC(=O)[C@@H](NC(=O)[C@@H]2CCCN2C(=O)[C@H](Cc2ccccc2)NC(=O)[C@H](Cc2c[nH]cn2)NC(=O)[C@@H](NC(=O)[C@H](CC(=O)O)NC(=O)CC(C)C)[C@@H](C)O)CSSC[C@@H](C(=O)N[C@@H](CCCCN)C(N)=O)NC(=O)CNC(=O)[C@H](CCCCN)NC(=O)[C@H](CO)NC(=O)[C@H](CCCNC(=N)N)NC(=O)[C@@H]2CCCN2C(=O)[C@H](CCC(=O)O)NC(=O)[C@H](Cc2ccccc2)NC1=O)C(=O)O	–	healthy human, plasma	subcutaneous, 20 mg, single dose, aqueous formulation, median	–	1 h
Cc1cn(C(=O)c2c(-c3c(Cl)cc(Cl)cc3Cl)noc2C(C)(C)F)c2cccc(/C=C/C(=O)O)c12	–	human patients	1400 mg bid, cycle 1 day 1	–	6 h
CCn1cc(C(=O)N2CCOCC2)c(=O)c2cc(NC3Cc4ccccc4C3)cnc21	–	human overall, fed, plasma	oral, 900 mg twice daily, day 7, tablet, median	–	3.5 h

A few entries again:
Structure (SMILES)	test	system	conditions	how to read	Tmax
C#C[C@]1(COP(=O)(O)OP(=O)(O)O)O[C@@H](n2cnc3c(N)nc(F)nc32)C[C@@H]1O	measured: islatravir triphosphate	human, PBMC	oral, 5 mg single dose	–	18 h
Cc1cc(Nc2cc3ncccc3c(N[C@@H]3C[C@H]4CC[C@@H](C3)N4CCC#N)n2)n[nH]1	–	human, plasma	1000 mg single dose, median	–	1.01 h
Cc1noc(C)c1-c1cc(C(O)(c2ccccn2)c2ccccn2)c2nc(C3CC3)[nH]c2c1	–	human male patients, fasted, plasma	oral, 2 mg once daily, cycle 1 day 8	–	0.5 h
Cn1c(=O)oc2ccc(-c3ccc(C[C@@H](C#N)NC(=O)[C@@H]4CNCCCO4)cc3)cc21	–	human, normal renal function, plasma	oral, 25 mg single dose, median	–	1 h
CC1=C(c2cccc(O)c2)[C@H](c2ccc(OCCN3CC(CF)C3)cc2)Oc2ccc(O)cc21	–	human, plasma	oral, 1000 mg once daily, steady state median	–	3 h
Cc1cc(-c2nnc(N)nc2-c2ccc(F)cc2)cc(Cl)n1	–	human patients, plasma	oral, 200 mg capsule, single dose, median	–	2 h
CC(C)(Sc1ccncc1-c1ccc(C#N)c2ccccc12)C(=O)O	–	human, plasma	oral, 2.5 mg once daily, median, added: febuxostat 0 mg	–	3.5 h
C[C@H](NC(=O)/C(C#N)=C/c1cccc(Br)n1)c1ccccc1	LC-MS/MS	human, plasma	oral, 1 mg/kg, cycle 1 day 1	–	0.5 h
